{"data": "Published values collected from several papers", "note": "Parts stem from different laboratories: compare values within a part only. Positions count from the first letter of the parent shown."}
{"data": "Set 1", "target": "Histone acetyltransferase KAT6A, winged helix 2, GST fusion (KAT6A, Homo sapiens, UniProt Q92794, residues 85-181)", "technique": "protein binding microarray", "form": "double-stranded DNA, one strand shown", "medium": "in vitro", "concentration": "not given", "setting": "8-mer, flanks averaged, mean of 2 arrays, mostly near background", "reference": "not given", "reading": "higher = stronger binding", "Construct (chain)": "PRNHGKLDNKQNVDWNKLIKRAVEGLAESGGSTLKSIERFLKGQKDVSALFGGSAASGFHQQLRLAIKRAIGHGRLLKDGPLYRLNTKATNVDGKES"}
{"Oligonucleotide": "GAGATAAC", "E-score": -0.085}
{"Oligonucleotide": "ATCGGGTG", "E-score": 0.0875}
{"Oligonucleotide": "GCGGTAAA", "E-score": 0.104}
{"Oligonucleotide": "AAAATCGG", "E-score": 0.0326}
{"Oligonucleotide": "ACTTGTAG", "E-score": -0.135}
{"Oligonucleotide": "CCCACCCC", "E-score": 0.00369}
{"Oligonucleotide": "AAAAGAAC", "E-score": -0.107}
{"Oligonucleotide": "CCTGTTCG", "E-score": 0.0648}
{"Oligonucleotide": "CTAAAACC", "E-score": -0.079}
{"Oligonucleotide": "GTTTATAA", "E-score": 0.0188}
{"Oligonucleotide": "CCTTAAAC", "E-score": 0.056}
{"Oligonucleotide": "CTCGGCGA", "E-score": 0.242}
{"Oligonucleotide": "TAATAACA", "E-score": 0.0525}
{"Oligonucleotide": "CCTGAGCA", "E-score": 0.125}
{"data": "Set 2", "target": "CCNE1, cyclin fold, Cln2 fusion (human)", "technique": "yeast growth competition, sequencing", "medium": "yeast", "setting": "strong parent motif", "reference": "not given", "reading": "higher = stronger binding", "starting sequence": "DBF4B docking peptide (human); LGYLYLLLTQSLW"}
{"Change": "L4A", "normalised enrichment score": 1.2}
{"Change": "Y3A", "normalised enrichment score": 0.854}
{"Change": "L6A", "normalised enrichment score": 0.925}
{"Change": "L12A", "normalised enrichment score": 1.08}
{"Change": "G2A", "normalised enrichment score": 0.773}
{"Change": "L8A", "normalised enrichment score": 1.71}
{"data": "Set 3", "target": "Sal-like protein 4, full length isoform B (SALL4, Homo sapiens, UniProt Q9UJQ4-2, residues 1-616)", "technique": "universal PBM", "form": "double-stranded DNA, one strand shown", "medium": "in vitro", "concentration": "not given", "setting": "8-mer, flanks averaged, mean of replicates", "reading": "higher = stronger binding"}
{"Oligonucleotide": "GAACACAC", "E-score": -0.0703}
{"Oligonucleotide": "CCCTGCTA", "E-score": -0.219}
{"Oligonucleotide": "CTACCGCC", "E-score": -0.272}
{"Oligonucleotide": "CAACGTTG", "E-score": 0.221}
{"Oligonucleotide": "CGTGTCTA", "E-score": -0.0146}
{"Oligonucleotide": "AGGGTGAG", "E-score": -0.208}
{"Oligonucleotide": "CAGTCATA", "E-score": 0.28}
{"Oligonucleotide": "CCCGTTGC", "E-score": -0.232}
{"Oligonucleotide": "ACGAGTAT", "E-score": 0.134}
{"Oligonucleotide": "GATCCGTA", "E-score": -0.208}
{"Oligonucleotide": "ATTTTGAC", "E-score": 0.228}
{"Oligonucleotide": "TCGGAAAA", "E-score": 0.209}
{"Oligonucleotide": "ATGACCGG", "E-score": -0.234}
{"Oligonucleotide": "CAGATTGG", "E-score": -0.216}
{"Oligonucleotide": "ACATAGGA", "E-score": 0.0526}
{"Oligonucleotide": "CTTCATAA", "E-score": 0.295}
{"data": "Mixed results", "UNK zinc fingers 1-6, SBP tag": "RING finger protein unkempt homolog, zinc fingers 1-6, SBP tag (UNK, Homo sapiens, UniProt Q9C0B0, residues 30-357)", "UniProt Q9C0B0, sequence (30-357, looked up)": "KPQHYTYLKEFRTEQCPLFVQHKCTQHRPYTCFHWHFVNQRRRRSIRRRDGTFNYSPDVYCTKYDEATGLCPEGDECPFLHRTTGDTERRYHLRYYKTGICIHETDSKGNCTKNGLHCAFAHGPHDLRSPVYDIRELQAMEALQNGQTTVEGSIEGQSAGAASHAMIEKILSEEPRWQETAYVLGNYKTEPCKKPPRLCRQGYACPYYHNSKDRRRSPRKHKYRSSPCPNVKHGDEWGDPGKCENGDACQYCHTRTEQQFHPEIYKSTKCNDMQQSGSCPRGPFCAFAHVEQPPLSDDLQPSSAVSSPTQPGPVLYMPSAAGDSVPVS"}
{"Molecule": "GGGAGUUCUACAGUCCGACGAUCGUGUUGGUACAGAGUGCUCUGUACCAGUGCUCAUCAUCCCUUCUUCAUACCAACGGUCCCCCGUUACCGGAAUUUAAUAUUUUUAAAAGUUUUACAUUGCUGUAUAUUCAAAGAUUUGUUCAACAGAGGAUUGAGCAUCA", "target": "UNK zinc fingers 1-6, SBP tag", "test": "RNA Bind-n-Seq", "test system": "RNA, in vitro", "setting": "100 nM, RNA with constant flanks, ends assumed", "scale": "reference: input RNA pool, higher = stronger binding", "quantity": "bound/input enrichment", "result": "0.245 ratio"}
{"Molecule": "PhoQ, residues 284 288 289 292 302 303 SSCLAV", "target": "PhoP, residues 12 14 15 18 19 LWHSL (Escherichia coli, UniProt P23836)", "test": "Sort-seq, item: YFP reporter", "test system": "E. coli", "setting": "PhoQ-PhoP variant library, added: 10 µM Mg2+", "scale": "reference: high Mg2+ state, higher = stronger signaling", "quantity": "fold induction", "result": 18.6}
{"Molecule": "GGGAGUUCUACAGUCCGACGAUCAGAGCUCACAAACUGAAAGGAAAACUAUUAAAGAGUUUCUAAUAUUAACUAUUAAAAAGCCCGGAAAGAUCCGGACAAUUUUACAAAUGAGCAAUUAAAAAGAAAAGAAAAGGAUCUGGGCAACAGAGGAUUGAGCAUCA", "target": "UNK zinc fingers 1-6, SBP tag", "test": "RNA Bind-n-Seq", "test system": "RNA, in vitro", "setting": "100 nM, RNA with constant flanks, ends assumed", "scale": "reference: input RNA pool, higher = stronger binding", "quantity": "bound/input enrichment", "result": "0.191 ratio"}
